Measured values from different studies.
Each line is one published result; not all experiments were run side by side.

Cc1cc(NCCOC(C)C)c2nc(N3CCOC[C@H]3C)cc(=O)n2c1  AUC(0-inf) (C57BL/6 mouse, plasma; intraperitoneal, 10 mg/kg, single dose): 16500 ng·h/mL
O=C(O)c1ccc(/C=C2\SC(=S)N(Cc3cccc(C(F)(F)F)c3)C2=O)cc1  AUC(0-inf) (C57BL/6 mouse, blood; intravenous, 5 mg/kg): 5720 ng·h/mL
Cc1ncsc1-c1ccc(CNC(=O)[C@@H]2C[C@@H](O)CN2C(=O)[C@@H](NC(=O)COCC(C)(COCCOCCOCCNC(=O)C[C@@H]2N=C(c3ccc(Cl)cc3)c3c(sc(C)c3C)-n3c(C)nnc32)COCCOCCOCCNC(=O)C[C@@H]2N=C(c3ccc(Cl)cc3)c3c(sc(C)c3C)-n3c(C)nnc32)C(C)(C)C)cc1  AUC(0-inf) (male C57BL/6 mouse, plasma; intravenous, 5 mg/kg, single dose): 27600 ng·h/mL
COc1cnc2cccc(N3CCc4c(cc(Cn5ccnc5)cc4-c4cn(C)nc4C(F)(F)F)C3=O)c2c1  AUC(0-inf) (male CD-1 mouse, plasma; intraperitoneal, 10 mg/kg): 11300 ng·h/mL
Cc1cc(NCC(=O)C(C)C)c2nc(N3CCOC[C@H]3C)cc(=O)n2c1  AUC(0-inf) (C57BL/6 mouse, plasma; intraperitoneal, 10 mg/kg, single dose): 3040 ng·h/mL
CCOC(=O)c1nc2cc(Cl)c(Cl)cc2nc1N1CCN(C(=O)Nc2ccc(N3CCNCC3)cc2)CC1  AUC(0-inf) (male mouse, plasma; intravenous, 3 mg/kg): 755 ng·h/mL
CC[C@H](C)/C=C/C=C/C=C/C(O)=C/C(=O)C(F)(F)F  AUC(0-inf) (female C57BL/6 mouse, plasma; oral, 25 mg/kg): 18800 ng·h/mL
COc1cc(OCCN2CCOCC2)cnc1-c1nc2cc(OC(F)(F)F)ccc2[nH]1  AUC(0-inf) (mouse, plasma; intraperitoneal, 100 mg/kg): 0.0347 µM·h
C/C(N)=N/C(=N\S(=O)(=O)c1ccc(C(F)(F)F)cc1)N1C[C@H](c2ccccc2)C(c2ccc(Cl)cc2)=N1  AUC(0-inf) (male C57BL/6 mouse, brain; oral, 10 mg/kg): 385 ng·h/mL
C[C@@H](Nc1nc2c(cnn2C(C)(C)C)c(=O)n1Cc1cccc(F)c1)c1ccc(Cl)cc1  AUC(0-inf) (C57BL/6 mouse, plasma; intravenous, 2.5 mg/kg): 1510 ng·h/mL
Cn1c2cc([S+](C)[O-])sc2c2cnn(Cc3cccc(N)c3)c(=O)c21 (centres unmarked)  AUC(0-inf) (male BALB/c mouse, plasma; intraperitoneal, 50 mg/kg, single dose): 131000 ng·h/mL
CC[C@H](C)[C@@H]1NC(=O)[C@@](C)(NC(=O)[C@H](CCCNC(=N)N)NC(=O)[C@H](CC(C)C)NC(=O)[C@]2(C)CCCC=CCCC[C@](C)(NC(C)=O)C(=O)N[C@@H](CC(C)C)C(=O)N[C@@H](CCC(N)=O)C(=O)N2)CCCC=CCCC[C@@](C)(C(=O)N[C@@H](CC(C)C)C(=O)N[C@@H](Cc2ccc3ccccc3c2)C(=O)NCCC(=O)NCCC(N)=O)NC(=O)[C@H](CCCNC(=N)N)NC(=O)[C@H](CCC(N)=O)NC1=O  AUC(0-inf) (male BALB/c mouse, plasma; intravenous, 30 mg/kg): 998000 ng·h/mL
Cc1cc(NC(=O)[C@H](O)c2cc(F)cc(F)c2)ccc1-c1cnc(N)c(C(=O)NC(C)C)c1  AUC(0-inf) (female nude mouse, plasma; oral, 100 mg/kg, single dose): 119000 ng·h/mL
Cn1ccc(-c2cc(Cl)c(Cl)c3[nH]c4c(c23)CN(C(=O)CO)CC4)n1  AUC(0-inf) (C57BL/6 mouse, blood; intravenous, 0.5 mg/kg): 0.848 µM·h
O=C1CCC(N2Cc3cc(C(=O)O)c(F)cc3C2=O)C(=O)N1 (centres unmarked)  AUC(0-inf) (male CD-1 mouse, plasma; intravenous, 1 mg/kg): 548 ng·h/mL
CC(=O)N1c2ccc(-c3ccc(CNC(=O)c4cn5cc(-c6cnc(N)nc6)nc(N6CCOCC6)c5n4)cc3)cc2CC[C@@H]1C  AUC(0-inf) (female C57BL/6 mouse, plasma; intraperitoneal, 45 mg/kg, single dose): 165 µM·h
N#CCCC1CCN(C(=S)c2ccc(-c3cc(Cl)ccc3Cl)o2)CC1  AUC(0-inf) (male BALB/c mouse, plasma; oral, 10 mg/kg): 14.5 ng·h/mL
Nc1ccc(-c2cc(Cl)c(Cl)c3[nH]c4c(c23)CN(C(=O)CO)CC4)cn1  AUC(0-inf) (C57BL/6 mouse, blood; oral, 20 mg/kg): 3.24 µM·h
COC(=O)C1=CNC=C(C(=O)OC)C1c1ccc(F)c(C(F)(F)F)c1  AUC(0-inf) (male C57BL/6 mouse, plasma; oral, 50 mg/kg): 16400 ng·h/mL
COc1ccccc1/C=C/CNCC(O)COc1ccc(Nc2ccccc2)cc1 (racemic)  AUC(0-inf) (mouse, plasma; intraperitoneal, 10 mg/kg): 1140 ng·h/mL

Some of these lines once more:
COc1cc(OCCN2CCOCC2)cnc1-c1nc2cc(OC(F)(F)F)ccc2[nH]1  AUC(0-inf) (mouse, plasma; intraperitoneal, 100 mg/kg): 0.0347 µM·h
COc1ccccc1/C=C/CNCC(O)COc1ccc(Nc2ccccc2)cc1 (racemic)  AUC(0-inf) (mouse, plasma; intraperitoneal, 10 mg/kg): 1140 ng·h/mL
